Assay results pooled from the literature.
Lines come from different studies, so protocols differ.
Organism: Enterococcus faecalis

SMILES	test	test system	conditions	MIC
CC(C)C[C@@H](NC(=O)[C@H](C)NC(=O)CNC(=O)[C@@H](NC=O)C(C)C)C(=O)N[C@@H](C)C(=O)N[C@@H](C(=O)N[C@H](C(=O)N[C@@H](C(=O)N[C@@H](Cc1c[nH]c2ccccc12)C(=O)N[C@H](CC(C)C)C(=O)N[C@@H](Cc1cccc2cc[nH]c12)C(=O)N[C@H](CC(C)C)C(=O)N[C@@H](Cc1c[nH]c2ccccc12)C(=O)N[C@H](CC(C)C)C(=O)N[C@@H](Cc1c[nH]c2ccccc12)C(=O)NCCO)C(C)C)C(C)C)C(C)C	broth microdilution	JCM 5803		4.3 µM
CC(C)C[C@H](NC(=O)[C@@H](NC(=O)[C@H](CCCNC(=N)N)NC(=O)[C@H](CCC(N)=O)NC(=O)[C@H](Cc1ccccc1)NC(=O)[C@H](Cc1ccc(O)cc1)NC(=O)[C@H](CC(N)=O)NC(=O)[C@H](Cc1c[nH]c2ccccc12)NC(=O)[C@@H](NC(=O)[C@H](CCCNC(=N)N)NC(=O)[C@H](CCCCN)NC(=O)[C@@H](N)Cc1ccccc1)C(C)C)C(C)C)C(=O)N[C@H](C(=O)N[C@@H](CCCCN)C(=O)N[C@@H](CCCCN)C(=O)N[C@@H](Cc1ccc(O)cc1)C(=O)N[C@@H](C)C(N)=O)C(C)C	broth dilution	KCTC 3511		> 100 µM
CN(C)[C@@H]1C(O)=C(C(N)=O)C(=O)[C@@]2(O)C(O)=C3C(=O)c4c(O)cnc(-c5ccccc5)c4C[C@H]3C[C@@H]12.Cl.Cl		tet(M)-carrying		> 32 µg/mL
CC(C)C[C@@H](NC(=O)[C@H](C)NC(=O)CNC(=O)[C@@H](NC=O)C(C)C)C(=O)N[C@@H](C)C(=O)N[C@@H](C(=O)N[C@H](C(=O)N[C@@H](C(=O)N[C@@H](Cc1c[nH]c2ccccc12)C(=O)N[C@H](CC(C)C)C(=O)N[C@@H](Cc1ccc2[nH]ccc2c1)C(=O)N[C@H](CC(C)C)C(=O)N[C@@H](Cc1c[nH]c2ccccc12)C(=O)N[C@H](CC(C)C)C(=O)N[C@@H](Cc1c[nH]c2ccccc12)C(=O)NCCO)C(C)C)C(C)C)C(C)C	broth microdilution	JCM 5803		0.13 µM
CN1C(=O)Cc2ccc(F)c(CCNC[C@H]3CN(c4ccc5c(n4)NC(=O)CO5)C(=O)O3)c21		ATCC 29212		0.125 µg/mL
CN[C@H](CC(C)C)C(=O)N[C@H]1C(=O)N[C@@H](CC(N)=O)C(=O)N[C@H]2C(=O)N[C@H]3C(=O)N[C@H](C(=O)N[C@H](C(=O)O)c4cc(O)cc(O)c4-c4cc3ccc4O)[C@H](O)c3ccc(c(Cl)c3)Oc3cc2cc(c3O[C@@H]2O[C@H](CO)[C@@H](O)[C@H](O)[C@H]2O[C@H]2C[C@](C)(N)[C@H](O)[C@H](C)O2)Oc2ccc(cc2Cl)[C@H]1O	broth microdilution	vancomycin-resistant, tryptic soy broth	20 to 24 h, 37 °C, 0.002% polysorbate 80	32 µg/mL
CCCCCCCNC(=O)CP(=O)(O)O		ATCC 33186		> 200 µg/mL
CN[C@H](CC(C)C)C(=O)N[C@H]1C(=O)N[C@@H](CC(N)=O)C(=O)N[C@H]2C(=O)NC3C(=O)N[C@H](C(=O)N[C@H](C(=O)NCCC[N+](C)(C)C)c4cc(O)cc(O)c4-c4cc3ccc4O)[C@H](O)c3ccc(c(Cl)c3)Oc3cc2cc(c3OC2OC(CO)C(O)[C@H](O)[C@@H]2O[C@H]2CC(C)(NCc3ccc(-c4ccc(Cl)cc4)cc3)[C@H](O)[C@H](C)O2)Oc2ccc(cc2Cl)[C@H]1O (some centres unmarked)		VanA VRE BM_4166	no LTA, added: Mg2+ 100 µg/mL	1 µg/mL
CN(C)[C@@H]1C(O)=C(C(N)=O)C(=O)[C@@]2(O)C(O)=C3C(=O)c4c(O)c(N)nc(F)c4C[C@H]3C[C@@H]12.Cl.Cl		tet(M)-carrying		16 µg/mL
CC[C@H](C)[C@H](NC(=O)[C@H](CCCCN)NC(=O)[C@H](CCCNC(=N)N)NC(=O)[C@H](CCCNC(=N)N)NC(=O)[C@H](CC(C)C)NC(=O)[C@H](CCCCN)NC(=O)[C@H](CCCCN)NC(=O)[C@H](Cc1ccccc1)NC(=O)[C@H](CC(C)C)NC(=O)CNC(=O)[C@H](CCCNC(=N)N)NC(=O)[C@@H](N)CCCNC(=N)N)C(=O)N[C@@H](CCCCN)C(=O)N[C@@H](CCCCN)C(=O)NCC(=O)N[C@@H](Cc1ccccc1)C(=O)N[C@@H](CCCCN)C(=O)N[C@@H](CCCCN)C(=O)N[C@H](C(=O)N[C@@H](Cc1ccccc1)C(=O)N[C@@H](CCCCN)C(=O)N[C@@H](CCCNC(=N)N)C(=O)N[C@@H](CC(C)C)C(=O)N1CCC[C@H]1C(=O)N1CCC[C@H]1C(=O)N[C@H](C(=O)NCC(=O)N[C@H](C(=O)NCC(=O)N[C@H](C(=O)N[C@@H](CO)C(=O)O)C(C)C)C(C)C)C(C)C)[C@@H](C)CC		ATCC 29212	highest concentration 50 µM	2.58 µM
CC[C@H](C)[C@H](N)C(=O)N[C@@H](CO)C(=O)N[C@@H](Cc1ccccc1)C(=O)N[C@@H](CC(C)C)C(=O)NCC(=O)N[C@@H](CO)C(=O)N[C@@H](CCCCN)C(=O)N[C@H](C(=O)N[C@H](C(=O)N[C@H](C(=O)N[C@@H](CC(C)C)C(=O)N[C@@H](CC(C)C)C(=O)N[C@@H](CCCCN)C(=O)N[C@@H](CCCNC(=N)N)C(=O)N[C@@H](CCCNC(=N)N)C(=O)N[C@@H](CCCCN)C(=O)N[C@@H](CCCNC(=N)N)C(=O)N[C@@H](CCCCN)C(=O)N[C@@H](CCCNC(=N)N)C(=O)N[C@@H](CCCCN)C(N)=O)C(C)C)C(C)C)C(C)C	broth microdilution	ATCC 29212	highest value reported	8 µM
Cc1ncc(O)c2c1C[C@H]1C[C@H]3[C@H](N(C)C)C(O)=C(C(N)=O)C(=O)[C@@]3(O)C(O)=C1C2=O.Cl.Cl		tet(M)-carrying		> 32 µg/mL
CC[C@H](C)[C@H](NC(=O)[C@H](CC(C)C)NC(=O)[C@@H](NC(=O)[C@H](CCCNC(=N)N)NC(=O)[C@H](CCCNC(=N)N)NC(=O)[C@H](CCCNC(=N)N)NC(=O)[C@@H](N)CCCNC(=N)N)[C@@H](C)CC)C(=O)N[C@@H](CCCCN)C(=O)N[C@@H](CCCCN)C(=O)N[C@H](C(=O)N[C@@H](CC(C)C)C(=O)N[C@@H](CCCCN)C(=O)N[C@@H](CC(C)C)C(=O)N[C@@H](CCCCN)C(=O)N[C@@H](CO)C(=O)N[C@@H](CO)C(=O)N[C@@H](C)C(=O)N[C@@H](Cc1ccc(O)cc1)C(N)=O)C(C)C	broth microdilution	ATCC 29212	highest value reported	64 µM
CN(C)[C@@H]1C(O)=C(C(N)=O)C(=O)[C@@]2(O)C(O)=C3C(=O)c4c(O)c(NC(=O)CNC(C)(C)C)nc(Cl)c4C[C@H]3C[C@@H]12.Cl.Cl.Cl		tet(M)-carrying		> 32 µg/mL
